Results of several laboratories.
± gives the spread as reported.
USP33 ZnF-UBD domain: Ubiquitin carboxyl-terminal hydrolase 33, ZnF-UBD domain (USP33, Homo sapiens, UniProt Q8TEY7)
Sequence of UniProt Q8TEY7 (whole entry, looked up): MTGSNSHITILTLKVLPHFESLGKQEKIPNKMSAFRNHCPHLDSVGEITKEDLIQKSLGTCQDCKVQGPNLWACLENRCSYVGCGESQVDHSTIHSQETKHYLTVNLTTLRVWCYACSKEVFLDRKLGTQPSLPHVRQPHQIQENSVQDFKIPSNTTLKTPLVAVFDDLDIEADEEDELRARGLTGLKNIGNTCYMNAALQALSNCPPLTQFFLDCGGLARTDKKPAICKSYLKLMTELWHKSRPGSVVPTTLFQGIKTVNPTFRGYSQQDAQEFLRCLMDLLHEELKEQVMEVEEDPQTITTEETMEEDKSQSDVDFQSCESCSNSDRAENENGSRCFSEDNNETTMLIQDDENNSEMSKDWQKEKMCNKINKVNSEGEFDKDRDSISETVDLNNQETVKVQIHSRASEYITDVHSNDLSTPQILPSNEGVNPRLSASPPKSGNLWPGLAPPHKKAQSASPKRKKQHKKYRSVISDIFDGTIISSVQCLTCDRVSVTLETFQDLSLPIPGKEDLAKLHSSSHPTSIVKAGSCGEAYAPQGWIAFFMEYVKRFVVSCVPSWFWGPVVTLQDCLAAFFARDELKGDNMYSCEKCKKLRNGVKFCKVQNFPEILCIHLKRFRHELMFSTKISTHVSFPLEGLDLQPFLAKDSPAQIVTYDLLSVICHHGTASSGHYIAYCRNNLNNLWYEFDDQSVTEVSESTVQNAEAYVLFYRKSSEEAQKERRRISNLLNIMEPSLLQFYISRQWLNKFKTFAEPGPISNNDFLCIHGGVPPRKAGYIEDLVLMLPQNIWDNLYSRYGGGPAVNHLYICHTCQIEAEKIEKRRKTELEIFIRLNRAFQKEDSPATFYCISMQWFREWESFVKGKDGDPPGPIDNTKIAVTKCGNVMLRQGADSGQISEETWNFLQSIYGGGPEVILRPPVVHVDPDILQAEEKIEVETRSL
IDE: Insulin-degrading enzyme (IDE, Homo sapiens, UniProt P14735)
Cereblon/Ikaros: Cereblon/Ikaros (Homo sapiens, UniProt Q13422+Q96SW2)
Sequence of UniProt Q96SW2 (whole entry, looked up): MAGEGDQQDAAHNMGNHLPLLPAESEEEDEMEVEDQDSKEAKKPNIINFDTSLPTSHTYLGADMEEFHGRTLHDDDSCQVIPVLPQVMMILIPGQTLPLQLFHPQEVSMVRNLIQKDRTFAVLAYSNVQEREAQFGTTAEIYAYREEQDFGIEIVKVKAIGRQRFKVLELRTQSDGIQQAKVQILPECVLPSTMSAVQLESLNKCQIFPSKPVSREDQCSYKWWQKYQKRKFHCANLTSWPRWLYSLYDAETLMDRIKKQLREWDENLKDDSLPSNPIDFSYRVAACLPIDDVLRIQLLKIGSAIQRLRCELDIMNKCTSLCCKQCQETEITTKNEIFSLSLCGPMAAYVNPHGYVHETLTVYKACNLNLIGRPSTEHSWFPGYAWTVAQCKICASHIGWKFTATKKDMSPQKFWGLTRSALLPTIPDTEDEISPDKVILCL
Sequence of UniProt Q13422 (whole entry, looked up): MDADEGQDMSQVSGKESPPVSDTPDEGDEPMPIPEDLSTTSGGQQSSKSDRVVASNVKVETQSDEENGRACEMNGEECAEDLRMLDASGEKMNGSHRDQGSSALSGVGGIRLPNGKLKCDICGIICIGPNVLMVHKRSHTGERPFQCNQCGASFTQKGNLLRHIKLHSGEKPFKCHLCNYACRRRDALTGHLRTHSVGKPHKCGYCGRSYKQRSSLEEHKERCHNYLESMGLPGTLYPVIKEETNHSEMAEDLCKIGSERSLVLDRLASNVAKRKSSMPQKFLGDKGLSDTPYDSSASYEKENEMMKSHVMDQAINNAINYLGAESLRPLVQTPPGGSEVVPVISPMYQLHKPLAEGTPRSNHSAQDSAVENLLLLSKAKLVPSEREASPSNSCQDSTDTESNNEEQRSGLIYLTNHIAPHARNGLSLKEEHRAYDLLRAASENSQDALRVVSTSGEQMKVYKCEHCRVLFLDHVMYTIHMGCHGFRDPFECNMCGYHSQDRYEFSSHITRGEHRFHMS
Sequence of UniProt Q13336 (whole entry, looked up): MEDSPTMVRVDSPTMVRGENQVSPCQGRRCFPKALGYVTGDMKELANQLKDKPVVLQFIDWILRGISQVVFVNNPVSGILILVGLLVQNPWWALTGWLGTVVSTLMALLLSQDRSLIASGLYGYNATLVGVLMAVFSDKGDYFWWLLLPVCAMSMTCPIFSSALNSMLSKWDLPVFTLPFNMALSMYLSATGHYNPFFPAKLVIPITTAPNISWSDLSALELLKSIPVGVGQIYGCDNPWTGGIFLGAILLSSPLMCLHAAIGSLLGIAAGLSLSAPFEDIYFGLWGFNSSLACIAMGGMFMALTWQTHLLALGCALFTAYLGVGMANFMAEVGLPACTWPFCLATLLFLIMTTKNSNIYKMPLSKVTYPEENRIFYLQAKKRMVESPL

CSc1nc(C)c(CCC(=O)O)c(=O)[nH]1
Kd (USP33 ZnF-UBD domain): 211 µM

Nc1ncnc2c1ncn2[C@@H]1O[C@H](COP(=O)(O)OP(=O)(O)O)[C@@H](O)[C@H]1O
Ki (klp-6 (Caenorhabditis elegans, UniProt G5EFQ4, S116T); microtubule gliding velocity, competitive inhibitor, single-molecule TIRF; pH 7.4, added: Mg-ATP varied, porcine microtubules): 31.2 ± 0.9 µM

Cc1ccccc1-c1ccc([C@@H]2[C@H]3CN(C(=O)c4ccncc4)CC(=O)N3[C@H]2CO)cc1
EC50 (IDE; enzyme activity, inhibitor, fluorogenic kinetic; added: Mca-RPPGFSAFK(Dnp)-OH substrate): 4.2 µM

NS(=O)(=O)c1nnc(NC(=O)CCC2CC3CCC2C3)s1 (centres unmarked)
Ki (Enterococcus faecium γ-carbonic anhydrase; CO2 hydration, inhibitor, stopped-flow kinetics): 0.267 µM

COc1cccc(-c2ccc([C@@H]3[C@@H](CO)N4CCCCN(CC5CC5)C[C@@H]34)cc2)c1
EC50 (IDE; enzyme activity, inhibitor, fluorogenic kinetic; added: Mca-RPPGFSAFK(Dnp)-OH substrate): 22.5 µM

CCC(C)(NCCc1ccc(C(F)(F)F)cc1Cl)c1cccc(NC2=CC(=O)N(C3CCC(=O)NC3=O)C2=O)c1 (centres unmarked)
DC50 (Cereblon/Ikaros; degrader): 0.13 ± 0.044 µM

Cc1ccccc1S(=O)(=O)N1CCCCN2[C@H](CO)[C@@H](c3ccc(-c4cccc(O)c4)cc3)[C@@H]2C1
EC50 (IDE; enzyme activity, inhibitor, fluorescence kinetic; added: Mca-RPPGFSAFK(Dnp)-OH substrate): 7.3 µM

NS(=O)(=O)c1nnc(NC(=O)Cc2ccccc2)s1
Ki (Enterococcus faecium γ-carbonic anhydrase; CO2 hydration, inhibitor, stopped-flow kinetics): 0.123 µM

O=C1CCC(N2C(=O)C=C(Nc3cccc(C4(NCCc5ccc(C(F)(F)F)c(Cl)c5)CCCC4)c3)C2=O)C(=O)N1 (centres unmarked)
DC50 (Cereblon/Ikaros; degrader; human cells): 0.04 ± 0.004 µM

Cc1cccc(-c2ccc([C@@H]3[C@@H](C(=O)O)N4CCCCN(S(=O)(=O)c5ccccc5C(F)(F)F)C[C@@H]34)cc2)c1C
EC50 (IDE; enzyme activity, inhibitor, fluorescence kinetic; added: Mca-RPPGFSAFK(Dnp)-OH substrate): 0.5 µM

O=C(O)CCc1ccno1
Kd (USP33 ZnF-UBD domain): > 1000 µM

Cc1ccccc1C(=O)Nc1nnc(S(N)(=O)=O)s1
Ki (Enterococcus faecium γ-carbonic anhydrase; CO2 hydration, inhibitor, stopped-flow kinetics): 0.113 µM

O=C(O)CCc1ccccc1OCc1ccccn1
Kd (USP33 ZnF-UBD domain): > 1000 µM

CCC(C)(NCCc1ccc(C(F)(F)F)cc1)c1cccc(NC2=CC(=O)N(C3CCC(=O)NC3=O)C2=O)c1 (centres unmarked)
DC50 (Cereblon/Ikaros; degrader): 0.04 ± 0.006 µM

NS(=O)(=O)c1cnc(NC(=O)CCC2CCCCC2)s1
Ki (Enterococcus faecium γ-carbonic anhydrase; CO2 hydration, inhibitor, stopped-flow kinetics): 1.36 µM

NC(=O)CNCCS(=O)(=O)O
Ki (Urea transporter 1 (Homo sapiens, UniProt Q13336); urea transport): no effect

CCC(C)(NCCc1ccc(C)cc1)c1cccc(NC2=CC(=O)N(C3CCC(=O)NC3=O)C2=O)c1 (centres unmarked)
DC50 (Cereblon/Ikaros; degrader, HiBiT luminescence, refers to: endogenous HiBiT-tagged protein): 0.06 ± 0.011 µM

OC[C@H]1OC(O)[C@H](O)[C@@H](O)[C@@H]1O (some centres unmarked)
Kd (CCAAT/enhancer-binding protein alpha (CEBPA, Homo sapiens, UniProt P49715); binding, microscale thermophoresis): > 2000 µM

O=C(O)CCc1cn2cccnc2n1
Kd (USP33 ZnF-UBD domain): > 1000 µM

NC[C@@H]1O[C@H](O[C@H]2[C@@H](O)[C@H](O[C@@H]3[C@@H](O)[C@H](N)C[C@H](N)[C@H]3O[C@H]3O[C@H](CN)[C@@H](O)[C@H](O)[C@H]3N)O[C@@H]2CO)[C@H](N)[C@@H](O)[C@@H]1O
Kd ((CCUG)10 RNA; SPR): 2.46 µM

Cc1ccc(C(=O)Nc2ccc3c(c2)CN(C2CCC(=O)NC2=O)C3=O)cc1 (centres unmarked)
DC50 (Cereblon/Ikaros; degrader, live-cell HiBiT kinetic; Jurkat Ikaros-HiBiT LgBiT): > 10 µM

CC1(C(=O)Nc2nnc(S(N)(=O)=O)s2)COC1
Ki (Enterococcus faecium γ-carbonic anhydrase; CO2 hydration, inhibitor, stopped-flow kinetics): 0.328 µM

O=C(O)CCc1nc2ccccc2c2nc(Cc3ccccc3)nn12
Kd (USP33 ZnF-UBD domain): > 1000 µM

NS(=O)(=O)c1cnc(NC(=O)CCc2ccccc2)s1
Ki (Enterococcus faecium γ-carbonic anhydrase; CO2 hydration, inhibitor, stopped-flow kinetics): 0.904 µM

Cc1ccccc1-c1ccc([C@H]2[C@@H](CO)N3C(=O)CN(C(=O)c4cccnc4)C[C@H]23)cc1
EC50 (IDE; enzyme activity, inhibitor, fluorogenic kinetic; added: Mca-RPPGFSAFK(Dnp)-OH substrate): 1.95 µM

NS(=O)(=O)c1nnc(NC(=O)CCCC2CCCCC2)s1
Ki (Enterococcus faecium γ-carbonic anhydrase; CO2 hydration, inhibitor, stopped-flow kinetics): 0.679 µM

Cc1ccccc1-c1ccc([C@H]2[C@H](CO)N3CCCCN(CC4CC4)C[C@@H]23)cc1
EC50 (IDE; enzyme activity, inhibitor, fluorogenic kinetic; added: Mca-RPPGFSAFK(Dnp)-OH substrate): 30 µM

O=C(O)Cn1ccc2ccccc2c1=O
Kd (USP33 ZnF-UBD domain): > 1000 µM

O=C1CCC(N2Cc3cc(Nc4noc5cc(F)ccc45)ccc3C2=O)C(=O)N1 (centres unmarked)
DC50 (Cereblon/Ikaros; degrader, live-cell HiBiT kinetic; Jurkat Ikaros-HiBiT LgBiT): > 10 µM

Cc1ccccc1-c1ccc([C@@H]2[C@@H](CO)N3CCCCN(C(=O)CN4CCOCC4)C[C@@H]23)cc1
EC50 (IDE; enzyme activity, inhibitor, fluorogenic kinetic; added: Mca-RPPGFSAFK(Dnp)-OH substrate): 6.4 µM

O=C1CCC(N2C(=O)C=C(Nc3cccc(C(NCCc4ccc(C(F)(F)F)c(Cl)c4)c4ccccc4)c3)C2=O)C(=O)N1 (centres unmarked)
DC50 (Cereblon/Ikaros; degrader, HiBiT luminescence, refers to: endogenous HiBiT-tagged protein): 0.09 ± 0.009 µM

Cc1ccccc1-c1ccc([C@H]2[C@H](CO)N3C(=O)CN(C(=O)c4ccc(F)cc4)C[C@@H]23)cc1
EC50 (IDE; enzyme activity, inhibitor, fluorogenic kinetic; added: Mca-RPPGFSAFK(Dnp)-OH substrate): 3 µM

CC1(C)CCCCN1CC(=O)Nc1nnc(S(N)(=O)=O)s1
Ki (Enterococcus faecium γ-carbonic anhydrase; CO2 hydration, inhibitor, stopped-flow kinetics): 0.182 µM

O=C(O)CNc1ccc2nncn2n1
Kd (USP33 ZnF-UBD domain): > 1000 µM

CCC(C)(NCCc1ccc(OC)cc1)c1cccc(NC2=CC(=O)N(C3CCC(=O)NC3=O)C2=O)c1 (centres unmarked)
DC50 (Cereblon/Ikaros; degrader, HiBiT luminescence, refers to: endogenous HiBiT-tagged protein): 0.06 ± 0.014 µM
